Results collected from several papers.
Parts stem from different laboratories: compare values within a part only. “And” joins repeats or separate records; there may be more than shown.
Sequence of UniProt P48729 (whole entry, looked up): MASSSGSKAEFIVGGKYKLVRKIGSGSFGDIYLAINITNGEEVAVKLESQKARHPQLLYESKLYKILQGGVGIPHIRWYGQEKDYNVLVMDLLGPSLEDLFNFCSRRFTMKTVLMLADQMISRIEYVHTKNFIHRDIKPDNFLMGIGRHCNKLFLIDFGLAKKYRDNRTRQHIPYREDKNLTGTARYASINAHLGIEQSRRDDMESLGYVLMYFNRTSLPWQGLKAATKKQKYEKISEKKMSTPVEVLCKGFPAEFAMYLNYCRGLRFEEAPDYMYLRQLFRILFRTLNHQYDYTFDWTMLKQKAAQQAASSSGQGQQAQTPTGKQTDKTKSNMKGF
Sequence of UniProt P54756 (whole entry, looked up): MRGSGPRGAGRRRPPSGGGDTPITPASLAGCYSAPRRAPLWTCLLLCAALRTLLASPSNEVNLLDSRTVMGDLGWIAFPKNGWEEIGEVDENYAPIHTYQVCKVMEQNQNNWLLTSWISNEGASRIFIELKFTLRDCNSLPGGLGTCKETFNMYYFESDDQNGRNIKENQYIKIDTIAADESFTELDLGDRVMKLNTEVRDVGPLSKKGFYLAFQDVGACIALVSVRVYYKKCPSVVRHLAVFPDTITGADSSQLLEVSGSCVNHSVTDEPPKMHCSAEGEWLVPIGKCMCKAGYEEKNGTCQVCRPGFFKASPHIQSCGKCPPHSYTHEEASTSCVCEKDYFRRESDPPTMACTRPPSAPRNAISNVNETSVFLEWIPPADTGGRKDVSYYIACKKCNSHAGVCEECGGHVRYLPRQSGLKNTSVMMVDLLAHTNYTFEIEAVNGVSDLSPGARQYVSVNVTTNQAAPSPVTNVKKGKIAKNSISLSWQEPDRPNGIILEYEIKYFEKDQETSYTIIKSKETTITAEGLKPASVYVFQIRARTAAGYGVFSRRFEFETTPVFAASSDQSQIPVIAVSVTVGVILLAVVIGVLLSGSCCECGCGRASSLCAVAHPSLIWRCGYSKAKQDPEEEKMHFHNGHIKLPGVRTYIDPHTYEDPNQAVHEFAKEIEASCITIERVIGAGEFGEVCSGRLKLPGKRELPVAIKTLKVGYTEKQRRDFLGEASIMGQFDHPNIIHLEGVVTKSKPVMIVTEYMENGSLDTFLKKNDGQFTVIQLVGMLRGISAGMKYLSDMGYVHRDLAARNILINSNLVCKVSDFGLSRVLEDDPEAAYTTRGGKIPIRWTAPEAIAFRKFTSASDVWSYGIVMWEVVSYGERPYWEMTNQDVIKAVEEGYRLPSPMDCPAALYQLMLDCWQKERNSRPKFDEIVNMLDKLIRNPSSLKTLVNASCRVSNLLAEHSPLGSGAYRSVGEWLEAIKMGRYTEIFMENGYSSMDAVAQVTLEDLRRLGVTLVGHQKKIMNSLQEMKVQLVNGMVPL
Sequence of UniProt P07948 (whole entry, looked up): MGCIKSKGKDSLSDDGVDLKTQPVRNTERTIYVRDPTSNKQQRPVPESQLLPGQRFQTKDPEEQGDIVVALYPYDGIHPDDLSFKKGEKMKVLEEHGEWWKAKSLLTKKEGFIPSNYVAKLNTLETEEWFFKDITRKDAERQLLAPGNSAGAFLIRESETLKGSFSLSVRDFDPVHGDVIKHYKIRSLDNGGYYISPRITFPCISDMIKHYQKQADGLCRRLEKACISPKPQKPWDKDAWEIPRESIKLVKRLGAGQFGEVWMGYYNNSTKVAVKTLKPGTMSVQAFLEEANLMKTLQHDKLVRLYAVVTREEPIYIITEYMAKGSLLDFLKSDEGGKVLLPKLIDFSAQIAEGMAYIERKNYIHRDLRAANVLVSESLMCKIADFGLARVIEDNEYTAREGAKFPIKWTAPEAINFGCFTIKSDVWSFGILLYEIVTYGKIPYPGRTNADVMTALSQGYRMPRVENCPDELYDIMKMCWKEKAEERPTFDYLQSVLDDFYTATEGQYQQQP
Sequence of UniProt P50750 (whole entry, looked up): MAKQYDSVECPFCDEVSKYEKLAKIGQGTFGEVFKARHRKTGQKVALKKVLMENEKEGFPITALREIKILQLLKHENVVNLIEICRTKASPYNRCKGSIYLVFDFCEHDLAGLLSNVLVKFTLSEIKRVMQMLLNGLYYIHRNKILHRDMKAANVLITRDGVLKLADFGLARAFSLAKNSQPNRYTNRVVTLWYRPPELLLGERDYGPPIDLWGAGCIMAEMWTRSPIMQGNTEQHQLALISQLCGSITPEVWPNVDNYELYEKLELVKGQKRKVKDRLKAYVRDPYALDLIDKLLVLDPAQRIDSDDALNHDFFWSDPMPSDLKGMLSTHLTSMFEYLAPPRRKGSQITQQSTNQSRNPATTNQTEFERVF

Sample 1
Target: human cyclin A2
Observed: peptide binding
Method: competitive growth sequencing
Form: peptide
Organism: Saccharomyces cerevisiae
Strain: cyclin A2-Cln2 fusion strain
Concentration: concentration not given
Notes: mutational scanning library
Reference: unfused Cln2 strain
Direction: direction not given
Sequence | binding score
HKTFRKLRLFDTP | -0.5
TKVRANAFNQELL | 0.0529
PSACANAFGPVDH | 0.0159
PCHRAVACFDSTT | 0.0868
STTRARAFVENDS | 0.146
PSVRAQAFVTVVK | -0.417
PKPLKKLRFDIEG | 0.358
SKACARAFGPVDS | -0.22

Sample 2
Cell line: normal organoid sample D
Method: CellTiter-Glo
Host: human
Matrix: normal-adjacent epithelium
Concentration: 1 µM
Reference: DMSO
Compound | viability
Cc1c(NC(=O)c2ccc(C(C)(C)C)cc2)cccc1-c1cn(C)c(=O)c(Nc2ccc(C(=O)N3CCOCC3)cc2)n1 | 67.2% and 98.7%
O=C(N1CCS(=O)(=O)CC1)N1C[C@H](c2ccc(OC(F)(F)F)cc2)C[C@H](c2nc(C3CC3)no2)C1 | 154% and 115%
CC(=O)Nc1c(C(C)=O)c(=O)n(C)c2nc(-c3ccc(Cl)cc3Cl)c(-c3ccc(Cl)cc3)cc12 | 127% and 100%

Sample 3
Compound: COc1ccc(Cl)cc1NC(=O)Nc1cc(C)nc2ccccc12
Observed: enzyme activity
Mode: inhibitor
Concentration: 0.5 µM
Reference: control
target | remaining activity
Cyclin-dependent kinase 9, with cyclin T1 (CDK9, Homo sapiens, UniProt P50750) | 98.2%
Casein kinase I isoform alpha (CSNK1A1, Homo sapiens, UniProt P48729) | 101%
Tyrosine-protein kinase Lyn (LYN, Homo sapiens, UniProt P07948) | 111%
Ephrin type-A receptor 5 (EPHA5, Homo sapiens, UniProt P54756) | 123%

Other studies, line by line
Substance | partner | test | setting | endpoint | value
PSMA7 (Homo sapiens, UniProt O14818) | PSMA8 (Homo sapiens, UniProt Q8TAA3) | cross-linking MS | hits only | interaction screen | cross-linked

Repeated from above (sample 3):
target | remaining activity
Tyrosine-protein kinase Lyn (LYN, Homo sapiens, UniProt P07948) | 111%
Ephrin type-A receptor 5 (EPHA5, Homo sapiens, UniProt P54756) | 123%
